# Results gathered from unrelated publications.
# Target: Mitogen-activated protein kinase 9 (MAPK9, Homo sapiens, UniProt P45984)
# Sequence of UniProt P45984 (whole entry, looked up): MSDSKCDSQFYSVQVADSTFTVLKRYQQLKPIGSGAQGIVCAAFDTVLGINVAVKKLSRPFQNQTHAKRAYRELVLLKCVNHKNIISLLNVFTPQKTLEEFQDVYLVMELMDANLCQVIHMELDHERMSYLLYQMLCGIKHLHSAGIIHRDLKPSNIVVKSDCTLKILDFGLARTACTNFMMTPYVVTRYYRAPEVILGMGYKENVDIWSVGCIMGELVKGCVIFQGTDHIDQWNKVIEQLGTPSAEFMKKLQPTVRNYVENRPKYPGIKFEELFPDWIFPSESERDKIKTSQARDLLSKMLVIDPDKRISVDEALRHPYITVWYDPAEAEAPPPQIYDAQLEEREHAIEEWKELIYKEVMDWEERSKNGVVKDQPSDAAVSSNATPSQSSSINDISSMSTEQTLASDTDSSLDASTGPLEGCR
Structure (SMILES),test,test system,conditions,scale,measurement,result
Cc1cc(Nc2cc(N3CCN(C)CC3)nc(Sc3ccc(NC(=O)C4CC4)cc3)n2)[nH]n1,"kinase activity, KinaseProfiler",,"0.03 µM, species human",baseline: control,remaining activity,105%
C=CC(=O)N1CCC(COCC(=O)N2CCN(c3nc(-c4cnc(N)nc4C(F)F)nc(N4CCOC[C@@H]4C)n3)CC2)CC1,KINOMEscan,,1 µM,baseline: DMSO control,remaining binding,78%
O=c1cc(-c2ccc([N+](=O)[O-])cc2)[nH]c2c(-c3ccc(Cl)cc3)c(Cc3ccccc3)nn12,"thermal stability, binder, thermal proteome profiling","RD, cell lysate","50 µM, 0.5% DMSO",baseline: DMSO vehicle,melting temperature shift,7.1 °C
O=C(NC1CCC1)c1ccc2nc(-c3cccc(NS(=O)(=O)NCCN4CCCCC4)c3)cn2c1,enzyme activity,,10 µM,,remaining activity,69%
CC[C@@H]1[C@H](F)C(=O)N[C@@H]1COc1nccc2cc(C(N)=O)c(OC)cc12,"ATP probe binding, KiNativ profiling, measured: Lys1 probe site",THP-1 cell lysate,0.04 mM,,inhibition,-18.4%
Cc1nc(NC(=O)N2CCC[C@H]2C(N)=O)sc1-c1ccnc(C(C)(C)C(F)(F)F)c1,KINOMEscan,,10 µM,,remaining binding,93%
CNc1ncc2c(/C=C/C(=O)N3CCC(OC)CC3)nn(Cc3cccc(C(F)(F)F)c3)c2n1,"kinase activity, inhibitor",,1 µM,baseline: untreated control,remaining activity,91%
Cc1cc(NC(=O)c2cccc(NC(=O)/C=C/CN(C)C)c2)ccc1Nc1nccc(-c2cccnc2)n1,"enzyme activity, inhibitor",,"0.06097 µM, unit not given",baseline: vehicle,remaining activity,0.348
COc1cc(-c2cncc3c2CN(C)Cc2cc(N4CCNCC4)ccc2-3)cc(OC)c1OC,kinase activity,,"1 µM, human enzyme, with: ATP 10 µM",baseline: DMSO control,remaining activity,118%
COc1cc(F)ccc1-c1ncnc(Nc2cccc(C[S@](C)(=N)=O)c2)n1,kinase activity,,"10 µM, with: 10 µM ATP",,remaining activity,95%

# Repeated from above:
Structure (SMILES),test,test system,conditions,scale,measurement,result
CNc1ncc2c(/C=C/C(=O)N3CCC(OC)CC3)nn(Cc3cccc(C(F)(F)F)c3)c2n1,"kinase activity, inhibitor",,1 µM,baseline: untreated control,remaining activity,91%
Cc1cc(NC(=O)c2cccc(NC(=O)/C=C/CN(C)C)c2)ccc1Nc1nccc(-c2cccnc2)n1,"enzyme activity, inhibitor",,"0.06097 µM, unit not given",baseline: vehicle,remaining activity,0.348
